{"data": "Measured values collected from several papers", "APP": "Amyloid-beta precursor protein (APP, Homo sapiens, UniProt P05067)", "APP amyloid-beta plaques": "Amyloid-beta precursor protein, amyloid-beta plaques (APP, Homo sapiens, UniProt P05067)", "APP amyloid-beta aggregates": "Amyloid-beta precursor protein, amyloid-beta aggregates (APP, Homo sapiens, UniProt P05067)", "note": "Protocols differ between the studies behind these lines. ± marks the error that the study gave.", "chain of UniProt P05067 (whole entry, looked up)": "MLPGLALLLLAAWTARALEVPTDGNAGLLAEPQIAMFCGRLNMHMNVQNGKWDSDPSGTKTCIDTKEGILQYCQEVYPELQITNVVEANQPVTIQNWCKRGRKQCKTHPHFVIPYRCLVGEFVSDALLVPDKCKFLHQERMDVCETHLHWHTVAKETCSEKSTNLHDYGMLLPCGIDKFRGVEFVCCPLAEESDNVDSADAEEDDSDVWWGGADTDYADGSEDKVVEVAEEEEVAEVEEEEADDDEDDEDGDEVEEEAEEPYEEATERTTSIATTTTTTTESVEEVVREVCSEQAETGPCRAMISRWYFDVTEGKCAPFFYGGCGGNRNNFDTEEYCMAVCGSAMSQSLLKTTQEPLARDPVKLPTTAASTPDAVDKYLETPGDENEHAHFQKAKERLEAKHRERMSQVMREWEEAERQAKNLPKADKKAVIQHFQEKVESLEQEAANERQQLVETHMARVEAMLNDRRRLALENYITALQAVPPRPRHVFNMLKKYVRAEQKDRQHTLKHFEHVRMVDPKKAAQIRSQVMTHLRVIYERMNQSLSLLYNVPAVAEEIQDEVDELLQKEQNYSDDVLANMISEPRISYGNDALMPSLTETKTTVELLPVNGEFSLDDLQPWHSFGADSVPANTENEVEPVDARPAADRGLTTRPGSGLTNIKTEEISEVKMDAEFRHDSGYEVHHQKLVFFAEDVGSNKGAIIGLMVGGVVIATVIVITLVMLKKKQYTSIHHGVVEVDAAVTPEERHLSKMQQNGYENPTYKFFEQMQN"}
{"Compound": "C=CCOC(=O)CCC(=O)Oc1ccc(/C=C/C(=O)/C=C(O)/C=C/c2ccc(OC(=O)CCC(=O)OCC=C)c(OC)c2)cc1OC", "target": "APP", "test": "amyloid aggregation, inhibitor, fluorescence", "quantity": "IC50", "value": "1960 nM"}
{"Compound": "CNc1ccc(/C=C/c2ccc(OCCOCCOCCOCCOCCOCCNC(=O)CO/N=C/c3ccc(OCCOCCOCCF)nc3)nc2)cc1 [fluorine-18 labelled]", "target": "APP amyloid-beta plaques", "test": "binding, competition binding", "test system": "Alzheimer brain gray matter homogenate", "setting": "120 min, pH 7.2, 37 °C, added: [18F]AV-45", "quantity": "Ki", "value": "25.2 ± 0.9 nM"}
{"Compound": "COC(=O)COc1ccc(C=CC(=O)CC(=O)C=Cc2ccc(O)c(OC)c2)cc1OC", "target": "APP amyloid-beta aggregates", "test": "binding, thioflavin T competition", "quantity": "IC50", "value": "140 nM"}
{"Compound": "COc1ccc(CCN2CCC(Nc3nc4ccccc4n3Cc3ccc(F)cc3)CC2)cc1", "target": "APP amyloid-beta plaques", "test": "binding, [3H]AV-45 displacement", "test system": "Alzheimer's disease brain", "setting": "added: [3H]AV-45 10 nM", "quantity": "IC50", "value": "> 10000 nM"}
{"Compound": "Nc1ccc(-c2ccc3cc(OCCOCCN4CCNC4=O)ccc3n2)cc1", "target": "APP amyloid-beta plaques", "test": "radioligand competition binding", "test system": "AD brain homogenate", "setting": "2 h, 37 °C, added: [3H]PIB", "quantity": "Ki", "value": "> 1000 nM"}
{"Compound": "COc1ccc(-c2ccc3c(c2)[nH]c2ccncc23)cn1", "target": "APP amyloid-beta plaques", "test": "binding, [3H]AV-45 displacement", "test system": "Alzheimer's disease brain", "setting": "added: [3H]AV-45 10 nM", "quantity": "IC50", "value": "> 10000 nM"}
{"Compound": "COC(=O)CCC(C(=O)C=Cc1ccc(O)c(OC(F)(F)F)c1)C(=O)C=Cc1ccco1 (stereo not shown)", "target": "APP amyloid-beta aggregates", "test": "binding, thioflavin T competition", "quantity": "IC50", "value": "650 nM"}
{"Compound": "Fc1ccc(-c2ccc3c(c2)[nH]c2ccncc23)cn1", "target": "APP amyloid-beta plaques", "test": "radioligand competition binding", "test system": "AD brain homogenate", "setting": "2 h, 37 °C, added: [3H]PIB", "quantity": "Ki", "value": "> 1000 nM"}
{"Compound": "O=C(C=Cc1ccc(O)c(OC(F)(F)F)c1)C(CCOCCOCCOCCOC1CCCCO1)C(=O)C=Cc1ccc(O)c(OC(F)(F)F)c1 (stereo not shown)", "target": "APP amyloid-beta aggregates", "test": "binding, thioflavin T competition", "quantity": "IC50", "value": "930 nM"}
{"Compound": "COc1cc(/C=C/C(O)=C/C(=O)/C=C/c2ccc(OCc3ccccc3)c(OC)c2)ccc1O", "target": "APP", "test": "amyloid aggregation, inhibitor, fluorescence", "quantity": "IC50", "value": "2050 nM"}
{"Compound": "COc1ccc(-c2csc(NN=Cc3ccccn3)n2)cc1", "target": "APP amyloid-beta plaques", "test": "binding, [3H]AV-45 displacement", "test system": "Alzheimer's disease brain", "setting": "added: [3H]AV-45 10 nM", "quantity": "IC50", "value": "> 10000 nM"}
{"Compound": "O=C(C=Cc1ccc(O)c(OC(F)(F)F)c1)C(CCOC1CCCCO1)C(=O)C=Cc1ccc(O)c(OC(F)(F)F)c1 (stereo not shown)", "target": "APP amyloid-beta aggregates", "test": "binding, thioflavin T competition", "quantity": "IC50", "value": "570 nM"}
{"Compound": "COc1ccc(-c2ccc3c(c2)[nH]c2ccncc23)cc1", "target": "APP amyloid-beta plaques", "test": "binding, [3H]AV-45 displacement", "test system": "Alzheimer's disease brain", "setting": "added: [3H]AV-45 10 nM", "quantity": "IC50", "value": "11.2 nM"}
{"Compound": "COCCOCCOCCOC(=O)/C(C#N)=C/c1ccc2cc(N3CCCCC3)ccc2c1", "target": "Amyloid-beta precursor protein, Aβ42 aggregates (APP, Homo sapiens, UniProt P05067)", "test": "binding, fluorescence titration", "setting": "5% DMSO in water, added: aggregated Abeta42 5 µM", "quantity": "Kd", "value": "1400 ± 200 nM"}
{"Compound": "CNc1ccc(/C=C/c2ccc(OCCOCCOCCF)nc2)cc1 [fluorine-18 labelled]", "target": "APP amyloid-beta aggregates", "test": "saturation binding, item: amyloid-beta", "test system": "Alzheimer's disease brain homogenate", "setting": "mean of brains", "quantity": "Kd", "value": "3.72 ± 0.3 nM"}
{"Compound": "COC(=O)c1ccc(-c2ccc3c(c2)[nH]c2ccncc23)cn1", "target": "APP amyloid-beta plaques", "test": "binding, [3H]AV-45 displacement", "test system": "Alzheimer's disease brain", "setting": "added: [3H]AV-45 10 nM", "quantity": "IC50", "value": "> 10000 nM"}
{"note": "Excerpt of the above:"}
{"Compound": "COc1ccc(-c2ccc3c(c2)[nH]c2ccncc23)cc1", "target": "APP amyloid-beta plaques", "test": "binding, [3H]AV-45 displacement", "test system": "Alzheimer's disease brain", "setting": "added: [3H]AV-45 10 nM", "quantity": "IC50", "value": "11.2 nM"}
{"Compound": "COc1ccc(CCN2CCC(Nc3nc4ccccc4n3Cc3ccc(F)cc3)CC2)cc1", "target": "APP amyloid-beta plaques", "test": "binding, [3H]AV-45 displacement", "test system": "Alzheimer's disease brain", "setting": "added: [3H]AV-45 10 nM", "quantity": "IC50", "value": "> 10000 nM"}
